Measured values gathered from unrelated publications.
A part holds a random share of what one study measured.
Sequence of UniProt P10721 (whole entry, unmodified, looked up): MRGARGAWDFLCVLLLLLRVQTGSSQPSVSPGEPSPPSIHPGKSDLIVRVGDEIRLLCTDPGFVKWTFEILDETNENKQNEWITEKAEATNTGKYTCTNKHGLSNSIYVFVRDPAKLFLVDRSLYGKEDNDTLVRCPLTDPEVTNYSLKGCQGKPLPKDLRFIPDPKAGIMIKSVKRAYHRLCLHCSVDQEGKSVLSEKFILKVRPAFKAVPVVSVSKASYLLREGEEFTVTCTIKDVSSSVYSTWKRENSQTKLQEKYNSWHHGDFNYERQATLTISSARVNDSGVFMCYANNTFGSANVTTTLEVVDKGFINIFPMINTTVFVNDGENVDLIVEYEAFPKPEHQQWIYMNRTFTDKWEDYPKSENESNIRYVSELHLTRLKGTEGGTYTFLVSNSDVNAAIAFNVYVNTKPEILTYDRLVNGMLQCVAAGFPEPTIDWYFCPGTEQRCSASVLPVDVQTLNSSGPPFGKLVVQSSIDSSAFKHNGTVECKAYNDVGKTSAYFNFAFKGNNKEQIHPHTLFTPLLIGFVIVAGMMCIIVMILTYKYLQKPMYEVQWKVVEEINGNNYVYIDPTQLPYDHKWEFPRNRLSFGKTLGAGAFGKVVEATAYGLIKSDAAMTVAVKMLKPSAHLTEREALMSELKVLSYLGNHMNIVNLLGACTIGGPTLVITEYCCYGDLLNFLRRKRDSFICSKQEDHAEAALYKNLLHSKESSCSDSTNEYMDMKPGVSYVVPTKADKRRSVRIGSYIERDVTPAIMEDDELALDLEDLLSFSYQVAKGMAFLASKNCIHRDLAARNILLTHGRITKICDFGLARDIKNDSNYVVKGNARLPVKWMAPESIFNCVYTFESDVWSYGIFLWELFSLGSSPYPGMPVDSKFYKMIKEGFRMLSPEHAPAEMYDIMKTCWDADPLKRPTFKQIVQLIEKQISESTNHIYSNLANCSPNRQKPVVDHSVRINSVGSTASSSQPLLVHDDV
Sequence of UniProt Q13470 (whole entry, looked up): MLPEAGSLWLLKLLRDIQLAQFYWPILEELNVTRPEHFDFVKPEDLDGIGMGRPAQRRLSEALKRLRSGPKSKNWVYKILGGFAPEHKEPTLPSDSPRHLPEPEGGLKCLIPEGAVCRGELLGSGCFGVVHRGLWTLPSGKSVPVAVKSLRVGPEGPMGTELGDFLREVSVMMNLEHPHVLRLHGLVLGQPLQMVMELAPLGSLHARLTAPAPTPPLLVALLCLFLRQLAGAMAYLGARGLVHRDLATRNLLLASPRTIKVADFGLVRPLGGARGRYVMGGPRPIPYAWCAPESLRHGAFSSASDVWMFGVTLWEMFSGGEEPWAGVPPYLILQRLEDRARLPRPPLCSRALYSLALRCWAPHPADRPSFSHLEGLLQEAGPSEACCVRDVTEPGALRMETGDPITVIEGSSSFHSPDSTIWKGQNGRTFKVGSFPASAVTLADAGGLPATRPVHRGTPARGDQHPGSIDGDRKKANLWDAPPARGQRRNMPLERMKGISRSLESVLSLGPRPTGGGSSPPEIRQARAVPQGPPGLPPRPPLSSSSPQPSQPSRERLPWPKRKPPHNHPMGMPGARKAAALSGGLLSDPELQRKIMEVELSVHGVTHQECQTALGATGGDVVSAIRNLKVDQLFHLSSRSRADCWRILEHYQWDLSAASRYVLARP
Sequence of UniProt Q16584 (whole entry, looked up): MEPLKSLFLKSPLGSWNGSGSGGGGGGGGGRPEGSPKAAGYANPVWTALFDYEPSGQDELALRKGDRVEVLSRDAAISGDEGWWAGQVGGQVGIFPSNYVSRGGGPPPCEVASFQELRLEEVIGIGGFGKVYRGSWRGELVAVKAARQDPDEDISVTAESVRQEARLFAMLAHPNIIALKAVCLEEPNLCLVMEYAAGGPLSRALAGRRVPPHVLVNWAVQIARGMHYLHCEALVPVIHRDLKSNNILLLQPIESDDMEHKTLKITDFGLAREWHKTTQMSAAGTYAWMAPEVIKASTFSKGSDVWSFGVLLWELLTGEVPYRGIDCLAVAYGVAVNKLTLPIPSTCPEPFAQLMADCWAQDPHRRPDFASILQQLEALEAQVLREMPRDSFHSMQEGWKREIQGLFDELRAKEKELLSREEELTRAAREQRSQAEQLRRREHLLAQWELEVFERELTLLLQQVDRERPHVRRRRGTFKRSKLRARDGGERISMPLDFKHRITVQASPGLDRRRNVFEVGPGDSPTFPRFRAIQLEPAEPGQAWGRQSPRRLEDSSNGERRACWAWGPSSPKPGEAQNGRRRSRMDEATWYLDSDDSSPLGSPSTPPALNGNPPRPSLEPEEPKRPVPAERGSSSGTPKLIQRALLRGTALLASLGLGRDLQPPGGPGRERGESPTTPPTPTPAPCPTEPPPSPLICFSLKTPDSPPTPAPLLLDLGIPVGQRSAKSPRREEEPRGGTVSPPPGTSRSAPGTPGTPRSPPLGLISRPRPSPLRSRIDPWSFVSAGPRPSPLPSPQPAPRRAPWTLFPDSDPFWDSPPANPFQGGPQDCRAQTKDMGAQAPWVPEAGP
Sequence of UniProt Q13546 (whole entry, looked up): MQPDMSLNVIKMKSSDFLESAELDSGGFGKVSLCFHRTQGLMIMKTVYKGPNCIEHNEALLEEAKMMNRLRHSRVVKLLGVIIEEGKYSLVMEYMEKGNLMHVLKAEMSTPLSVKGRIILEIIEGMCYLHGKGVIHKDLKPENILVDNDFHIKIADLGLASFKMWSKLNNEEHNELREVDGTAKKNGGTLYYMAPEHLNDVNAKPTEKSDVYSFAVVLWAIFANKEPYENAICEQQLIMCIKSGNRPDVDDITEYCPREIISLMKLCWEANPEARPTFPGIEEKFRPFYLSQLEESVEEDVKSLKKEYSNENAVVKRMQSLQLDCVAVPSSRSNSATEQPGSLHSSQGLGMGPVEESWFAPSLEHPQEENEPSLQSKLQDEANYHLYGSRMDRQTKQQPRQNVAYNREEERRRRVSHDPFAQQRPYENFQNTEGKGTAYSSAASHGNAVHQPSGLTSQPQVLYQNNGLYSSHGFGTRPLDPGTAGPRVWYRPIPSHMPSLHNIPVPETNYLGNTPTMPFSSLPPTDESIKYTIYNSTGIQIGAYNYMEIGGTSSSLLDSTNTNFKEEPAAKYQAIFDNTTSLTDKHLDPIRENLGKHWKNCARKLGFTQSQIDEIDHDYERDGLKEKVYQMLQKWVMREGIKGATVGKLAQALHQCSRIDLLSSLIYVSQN
Sequence of UniProt Q15208 (whole entry, looked up): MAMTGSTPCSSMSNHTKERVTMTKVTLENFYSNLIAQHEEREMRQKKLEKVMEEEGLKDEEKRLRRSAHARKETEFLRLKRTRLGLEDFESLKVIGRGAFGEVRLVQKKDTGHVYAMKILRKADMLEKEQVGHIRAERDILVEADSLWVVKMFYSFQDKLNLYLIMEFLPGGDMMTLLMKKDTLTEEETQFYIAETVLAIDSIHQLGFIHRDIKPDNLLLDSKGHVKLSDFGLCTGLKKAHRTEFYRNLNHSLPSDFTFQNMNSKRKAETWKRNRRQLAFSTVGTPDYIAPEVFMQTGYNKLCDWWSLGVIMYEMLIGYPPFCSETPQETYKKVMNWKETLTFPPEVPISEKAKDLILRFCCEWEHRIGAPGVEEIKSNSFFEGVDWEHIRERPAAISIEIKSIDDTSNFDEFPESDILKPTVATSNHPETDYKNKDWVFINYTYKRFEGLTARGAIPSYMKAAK
Sequence of UniProt Q13188 (whole entry, looked up): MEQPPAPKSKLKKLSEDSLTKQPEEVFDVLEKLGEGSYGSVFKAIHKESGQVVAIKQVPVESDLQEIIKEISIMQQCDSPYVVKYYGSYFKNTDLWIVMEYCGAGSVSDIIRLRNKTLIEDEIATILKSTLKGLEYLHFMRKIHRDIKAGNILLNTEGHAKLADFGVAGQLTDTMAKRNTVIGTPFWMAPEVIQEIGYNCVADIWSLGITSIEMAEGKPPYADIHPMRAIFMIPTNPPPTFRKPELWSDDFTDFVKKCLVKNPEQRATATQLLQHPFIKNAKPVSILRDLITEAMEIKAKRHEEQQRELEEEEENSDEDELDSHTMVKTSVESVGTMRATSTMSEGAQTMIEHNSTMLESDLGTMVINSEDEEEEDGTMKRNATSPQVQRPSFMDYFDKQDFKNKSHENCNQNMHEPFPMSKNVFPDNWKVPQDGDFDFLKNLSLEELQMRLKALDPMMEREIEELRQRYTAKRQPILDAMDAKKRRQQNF
Sequence of UniProt Q00532 (whole entry, looked up): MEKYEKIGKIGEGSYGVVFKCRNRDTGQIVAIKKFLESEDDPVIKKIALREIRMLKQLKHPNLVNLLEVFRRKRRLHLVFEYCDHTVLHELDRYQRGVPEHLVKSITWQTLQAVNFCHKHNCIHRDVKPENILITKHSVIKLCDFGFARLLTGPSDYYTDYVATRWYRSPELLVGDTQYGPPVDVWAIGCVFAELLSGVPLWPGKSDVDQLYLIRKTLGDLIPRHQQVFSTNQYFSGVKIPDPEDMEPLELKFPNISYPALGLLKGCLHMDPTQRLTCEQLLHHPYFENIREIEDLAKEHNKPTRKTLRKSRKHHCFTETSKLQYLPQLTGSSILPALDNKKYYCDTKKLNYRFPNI

Set 1
Target: Megakaryocyte-associated tyrosine-protein kinase (MATK, Homo sapiens, UniProt P42679)
Sequence of UniProt P42679 (whole entry, looked up): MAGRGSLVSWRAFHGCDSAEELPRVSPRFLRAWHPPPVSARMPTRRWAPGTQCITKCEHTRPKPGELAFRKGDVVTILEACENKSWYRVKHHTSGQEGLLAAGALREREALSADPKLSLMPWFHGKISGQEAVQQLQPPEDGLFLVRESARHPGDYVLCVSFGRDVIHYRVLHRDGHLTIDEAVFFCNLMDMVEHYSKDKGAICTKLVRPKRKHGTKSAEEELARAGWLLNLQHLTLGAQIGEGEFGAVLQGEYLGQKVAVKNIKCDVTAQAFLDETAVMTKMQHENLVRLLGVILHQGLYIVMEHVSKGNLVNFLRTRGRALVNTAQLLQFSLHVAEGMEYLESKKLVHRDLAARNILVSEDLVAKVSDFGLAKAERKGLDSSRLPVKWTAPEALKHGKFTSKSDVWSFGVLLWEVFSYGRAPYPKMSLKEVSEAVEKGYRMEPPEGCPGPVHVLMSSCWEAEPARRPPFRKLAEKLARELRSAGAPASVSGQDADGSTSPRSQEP
Observed: enzyme activity
Mode: inhibitor
Tested at: 0.5 µM
Reference: control
SMILES | remaining activity
CN([C@@H](Cc1ccc(OS(=O)(=O)c2cccc3cnccc23)cc1)C(=O)N1CCN(c2ccccc2)CC1)S(=O)(=O)c1cccc2cnccc12 | 94.8%
COc1cc2ncnc(Nc3ccc(O)c(Br)c3)c2cc1OC | 98%
Cc1nc2cc3nc(-c4cccs4)cnc3cc2n1C | 100%
CN(C)C[C@H]1CCn2c(c(C3=C(c4cn(C)c5ccccc45)C(=O)NC3=O)c3ccccc32)C1 | 95%
N#C/C(=C\c1ccc(O)c(O)c1)C(=O)NCc1ccccc1 | 86.3%
c1ccc(-c2cnc(Nc3ccc(OCCN4CCCC4)cc3)s2)cc1 | 94.3%
Ic1cccc(CSc2nnc(-c3ccncc3)o2)c1 | 94.3%
O=C1C(Cl)=C(N2C(=O)CCC2=O)C(=O)c2ccccc21 | 88%
COc1cc2c(cc1OC)-c1[nH]nc(Nc3cccc(F)c3)c1C2 | 92.1%
CCN(CC)CCNC(=O)c1c(C)[nH]c(/C=C2\C(=O)Nc3ccc(Cl)cc32)c1C | 96.8%
COc1cc2ncnc(Nc3cccc(Cl)c3)c2cc1OC | 103%
c1ccc(-c2[nH]ncc2-c2ccnc3ccccc23)nc1 | 87.9%
Cc1cc2ncc(-c3ccccc3)nc2cc1C | 95.4%
O=C(Nc1cccc(Nc2nccc(Nc3cccc(C(F)(F)F)c3)n2)c1)C1CC1 | 101%
Cc1cn(-c2cc(NC(=O)c3ccc(C)c(Nc4nccc(-c5cccnc5)n4)c3)cc(C(F)(F)F)c2)cn1 | 79.2%
O=C1c2ccccc2-c2n[nH]c3cccc1c23 | 107%
Cn1nc2c3c(cccc31)C(=O)c1ccccc1-2 | 88%
CCOc1nc(NC(=O)Cc2cc(OC)ccc2OC)cc(N)c1C#N | 88.6%
Nc1cccc(-c2cc3c(Oc4cccc(O)c4)ncnc3[nH]2)c1 | 97.8%
CCN(CC)CCNC(=O)c1c(C)[nH]c(/C=C2\C(=O)Nc3ccc(F)cc32)c1C | 88.8%
N#Cc1c(NC(=O)c2cccc3ccccc23)sc2c1CCCC2 | 92.7%
O=c1cc(-c2cccc3c2Sc2ccccc2S3)oc(N2CCOCC2)c1 | 102%
C[C@@H]1CCN(C(=O)CC#N)C[C@@H]1N(C)c1ncnc2[nH]ccc12 | 66.9%
CCN(CC)C(=O)c1ccc(Nc2nc(OCC3CCCCC3)c3[nH]cnc3n2)cc1 | 95.6%
O=C(NC(NC(=S)Nc1ccc(F)c([N+](=O)[O-])c1)C(Cl)(Cl)Cl)C(c1ccccc1)c1ccccc1 (centres unmarked) | 96.5%

Set 2
SMILES: Cc1nc(C2CCN(C(=O)c3ccc(OC(F)(F)F)cc3N)CC2)c2ncc(N3CCN(C)CC3)cc2n1
Observed: cell-free assay
Method: competition with immobilised ligand
Tested at: 1 µM
target | remaining binding [%]
Non-receptor tyrosine-protein kinase TNK1 (TNK1, Homo sapiens, UniProt Q13470) | 100
Serine/threonine-protein kinase 38 (STK38, Homo sapiens, UniProt Q15208) | 94
Serine/threonine-protein kinase 3 (STK3, Homo sapiens, UniProt Q13188) | 79
Mast/stem cell growth factor receptor Kit (KIT, Homo sapiens, UniProt P10721, A829P) | 86
Uncharacterized serine/threonine-protein kinase SBK3 (SBK3, Homo sapiens, UniProt P0C264) | 77
Tyrosine-protein kinase ABL1, phosphorylated (ABL1, Homo sapiens, UniProt P00519, Q252H) | 100
Mitogen-activated protein kinase kinase kinase kinase 5 (MAP4K5, Homo sapiens, UniProt Q9Y4K4) | 100
Cyclin-dependent kinase-like 1 (CDKL1, Homo sapiens, UniProt Q00532) | 89
Receptor-interacting serine/threonine-protein kinase 1 (RIPK1, Homo sapiens, UniProt Q13546) | 98
Tyrosine-protein kinase ABL1, non-phosphorylated (ABL1, Homo sapiens, UniProt P00519) | 92
1-phosphatidylinositol 3-phosphate 5-kinase (PIKFYVE, Homo sapiens, UniProt Q9Y2I7) | 100
Mitogen-activated protein kinase kinase kinase 11 (MAP3K11, Homo sapiens, UniProt Q16584) | 100
Mast/stem cell growth factor receptor Kit (KIT, Homo sapiens, UniProt P10721, T670I/V559D) | 100
Cyclin-dependent kinase-like 5 (CDKL5, Homo sapiens, UniProt O76039) | 89
Mast/stem cell growth factor receptor Kit (KIT, Homo sapiens, UniProt P10721, D816V) | 100
Serine/threonine-protein kinase Nek10 (NEK10, Homo sapiens, UniProt Q6ZWH5) | 100
Ribosomal protein S6 kinase alpha-4, C-terminal kinase domain (RPS6KA4, Homo sapiens, UniProt O75676) | 93
Epidermal growth factor receptor (EGFR, Homo sapiens, UniProt P00533, L861Q) | 100

Set 3
Structure (SMILES): CC(C)n1cnc(-c2ccc(F)cc2)c1-c1ncc(C(=O)Nc2ccc(N3CCN(C)CC3)cc2)[nH]1
Method: phase 2a trial
Host: idiopathic pulmonary fibrosis patients
measured | dose | notes | adverse event incidence [%]
hepatic enzyme abnormal | 30 mg once daily | grade 2 | 0
synovitis | 30 mg once daily | grade 3 | 0
arthritis | dose not given | grade 5, all arms pooled | 0
synovitis | 30 mg once daily | grade 5 | 0
ECG ST segment abnormal | dose not given | grade 2, all arms pooled | 0
drug eruption | dose not given | grade 5, all arms pooled | 0
QRS axis abnormal | 60 mg once daily | grade 4 | 0
arthritis | dose not given | grade 4, all arms pooled | 0

Single results of other studies
Cell line: HaCaT
Tested at: 100 µM
Time: 36 h
Structure (SMILES) | viability [%]
C[C@@H]1CC(=O)NN=C1c1ccc(NN=C(C#N)C#N)cc1 | 81.4
CNC(=C[N+](=O)[O-])NCCSCc1csc(CN(C)C)n1 | 99.3

A few entries again (set 2):
target | remaining binding [%]
1-phosphatidylinositol 3-phosphate 5-kinase (PIKFYVE, Homo sapiens, UniProt Q9Y2I7) | 100
Mitogen-activated protein kinase kinase kinase 11 (MAP3K11, Homo sapiens, UniProt Q16584) | 100
Mast/stem cell growth factor receptor Kit (KIT, Homo sapiens, UniProt P10721, T670I/V559D) | 100
Cyclin-dependent kinase-like 5 (CDKL5, Homo sapiens, UniProt O76039) | 89
Mast/stem cell growth factor receptor Kit (KIT, Homo sapiens, UniProt P10721, D816V) | 100
Serine/threonine-protein kinase Nek10 (NEK10, Homo sapiens, UniProt Q6ZWH5) | 100
Ribosomal protein S6 kinase alpha-4, C-terminal kinase domain (RPS6KA4, Homo sapiens, UniProt O75676) | 93
